Assay results collected from several papers.
Every numbered part comes from another study and shows a few of its results, in no order.

Study 1
Target: Prothrombin, mature alpha-thrombin (F2, Homo sapiens, UniProt P00734)
Technique: aptamer microarray, sandwich
Molecule type: DNA with 2'F-ANA
Matrix: in vitro
Concentration: 200 nM
Setting: whole 15-mer aptamer, many near background
Together with: Cy3 exosite-II aptamer, 400 nM
Direction: higher = stronger binding
Oligonucleotide: GGTTGGTGTGGTTGG
Modification | mean fluorescence intensity
2'F-ANA at 2 5 7 9 11 12 14 15 | 48.1 a.u.
2'F-ANA at 3 9 10 11 | 519 a.u.
2'F-ANA at 1 2 4 6 8 9 11 12 13 14 | 52.3 a.u.
2'F-ANA at 1 4 5 6 7 10 11 13 14 15 | 50.5 a.u.
2'F-ANA at 2 9 10 11 14 | 91.2 a.u.
2'F-ANA at 1 2 3 4 5 7 9 13 14 | 44.8 a.u.
2'F-ANA at 1 2 3 7 8 11 12 13 14 | 99.2 a.u.

Study 2
Target: Histone acetyltransferase KAT6A, winged helix 1, GST fusion (KAT6A, Homo sapiens, UniProt Q92794, residues 1-85)
Technique: protein binding microarray
Molecule type: double-stranded DNA, one strand shown
Matrix: in vitro
Concentration: not given
Setting: 8-mer, flanks averaged, mean of 2 arrays, mostly near background
Reference: not given
Direction: higher = stronger binding
Target sequence (chain): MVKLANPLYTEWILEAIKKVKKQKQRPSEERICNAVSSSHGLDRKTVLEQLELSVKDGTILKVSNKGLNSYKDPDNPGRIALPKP
Oligonucleotide | E-score
CAGTAGTC | -0.0851
GTAACATA | 0.0483
CCCCCGCG | 0.411
CGTGAGGC | 0.116
GTCAGGAC | -0.188
AACCCACC | -0.0385
AAGGGCAA | -0.0751

Study 3
Target: Sal-like protein 4, full length isoform A (SALL4, Homo sapiens, UniProt Q9UJQ4, residues 1-1053)
Chain of UniProt Q9UJQ4 (whole entry, looked up): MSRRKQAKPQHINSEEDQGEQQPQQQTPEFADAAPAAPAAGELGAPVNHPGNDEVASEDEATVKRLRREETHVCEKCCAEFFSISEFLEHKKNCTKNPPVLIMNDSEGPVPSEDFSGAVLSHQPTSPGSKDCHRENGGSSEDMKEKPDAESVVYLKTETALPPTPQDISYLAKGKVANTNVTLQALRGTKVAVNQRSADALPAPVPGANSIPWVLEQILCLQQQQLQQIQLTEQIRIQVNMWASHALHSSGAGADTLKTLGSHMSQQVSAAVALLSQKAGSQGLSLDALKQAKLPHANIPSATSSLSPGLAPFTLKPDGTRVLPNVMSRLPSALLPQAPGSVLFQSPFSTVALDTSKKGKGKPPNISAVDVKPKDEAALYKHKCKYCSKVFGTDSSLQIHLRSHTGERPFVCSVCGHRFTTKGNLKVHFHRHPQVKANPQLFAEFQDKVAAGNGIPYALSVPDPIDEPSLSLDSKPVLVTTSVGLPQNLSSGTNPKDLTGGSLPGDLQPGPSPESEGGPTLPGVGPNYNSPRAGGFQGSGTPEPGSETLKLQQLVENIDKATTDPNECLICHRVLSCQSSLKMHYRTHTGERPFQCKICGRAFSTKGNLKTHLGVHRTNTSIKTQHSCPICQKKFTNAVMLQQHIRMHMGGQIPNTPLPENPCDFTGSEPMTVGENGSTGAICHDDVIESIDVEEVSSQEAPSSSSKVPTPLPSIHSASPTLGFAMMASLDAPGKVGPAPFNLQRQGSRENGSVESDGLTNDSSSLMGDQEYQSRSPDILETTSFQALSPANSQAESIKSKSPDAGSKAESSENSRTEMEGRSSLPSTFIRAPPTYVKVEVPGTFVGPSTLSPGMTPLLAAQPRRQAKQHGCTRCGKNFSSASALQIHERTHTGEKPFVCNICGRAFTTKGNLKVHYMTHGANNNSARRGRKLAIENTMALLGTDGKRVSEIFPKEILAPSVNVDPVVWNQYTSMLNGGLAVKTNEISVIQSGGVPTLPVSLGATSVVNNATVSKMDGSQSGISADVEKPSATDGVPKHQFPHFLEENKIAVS
Technique: universal PBM
Molecule type: double-stranded DNA, one strand shown
Matrix: in vitro
Concentration: 600 nM
Setting: 8-mer, flanks averaged, mean of replicates
Direction: higher = stronger binding
Oligonucleotide | E-score
GGTCATTA | 0.0397
AATTCTAC | 0.183
ATGGAGCA | -0.03
GGGCCCAC | -0.356
GGATAGCA | 0.0915

Further values, each from its own experiment
Substance | target | assay | system | conditions | how to read | measurement | value
PhoQ, residues 284 288 289 292 302 303 AMDMFI | PhoP, residues 12 14 15 18 19 NMSFL (Escherichia coli, UniProt P23836) | Sort-seq, item: YFP reporter | E. coli | PhoQ-PhoP variant library, together with: 10 µM Mg2+ | reference: high Mg2+ state, higher = stronger signaling | fold induction | 1.5

For quick reference, copied from above (further values, each from its own experiment):
Substance | target | assay | system | conditions | how to read | measurement | value
PhoQ, residues 284 288 289 292 302 303 AMDMFI | PhoP, residues 12 14 15 18 19 NMSFL (Escherichia coli, UniProt P23836) | Sort-seq, item: YFP reporter | E. coli | PhoQ-PhoP variant library, together with: 10 µM Mg2+ | reference: high Mg2+ state, higher = stronger signaling | fold induction | 1.5
